Published values of several laboratories.
Parts stem from different laboratories: compare values within a part only.

Set 1 — technique: RNAcompete; form: RNA; matrix: in vitro; tested at: 20 nM; notes: 7-mer, probes averaged, single round; baseline: mean of 7-mers; reading: higher = stronger binding
Target: PABPC1L2, full length, GST fusion (mouse, UniProt A0ABA7IW68)
Construct (chain): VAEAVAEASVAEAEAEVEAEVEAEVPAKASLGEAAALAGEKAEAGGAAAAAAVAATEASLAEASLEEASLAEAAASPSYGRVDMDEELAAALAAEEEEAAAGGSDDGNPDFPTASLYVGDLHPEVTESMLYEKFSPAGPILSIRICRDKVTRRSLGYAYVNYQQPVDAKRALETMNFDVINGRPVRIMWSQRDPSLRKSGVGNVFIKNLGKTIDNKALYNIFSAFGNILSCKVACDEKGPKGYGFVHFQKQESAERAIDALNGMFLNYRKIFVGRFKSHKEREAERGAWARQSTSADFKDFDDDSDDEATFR
Sequence | 7-mer Z-score
CUUUUUA | 0.327
ACGGACG | 0.0352
AUAAACU | 1.26
CUAGGGA | 0.211
AAGUCCU | -0.206
UUGACAG | -0.217
UGCAGUG | -0.309
ACUUUAU | -0.0283
UUUAAUU | -0.0645
CAUACGG | -0.0573
AGAGGCG | 0.0859
CUUCACU | -0.344
GUUCGAC | -0.325
ACCCAGC | -0.255
UACAUCU | -0.229
UAGGAAG | -0.0409
CAUUCCC | -0.402
AGGCUGU | -0.0718
CUAUGGC | -0.19
UUGCUCG | -0.333
CAUACGU | -0.215
GUGAUGG | -0.199
CGCGAGC | -0.356
CGGUCCC | -0.318
UGGUACU | 0.000733

Set 2 — technique: universal PBM; form: double-stranded DNA, one strand shown; matrix: in vitro; tested at: not given; reading: higher = stronger binding
Target: Sal-like protein 4, full length isoform B (SALL4, Homo sapiens, UniProt Q9UJQ4-2, residues 1-616)
Notes: 8-mer, flanks averaged, mean of replicates
Residues (chain): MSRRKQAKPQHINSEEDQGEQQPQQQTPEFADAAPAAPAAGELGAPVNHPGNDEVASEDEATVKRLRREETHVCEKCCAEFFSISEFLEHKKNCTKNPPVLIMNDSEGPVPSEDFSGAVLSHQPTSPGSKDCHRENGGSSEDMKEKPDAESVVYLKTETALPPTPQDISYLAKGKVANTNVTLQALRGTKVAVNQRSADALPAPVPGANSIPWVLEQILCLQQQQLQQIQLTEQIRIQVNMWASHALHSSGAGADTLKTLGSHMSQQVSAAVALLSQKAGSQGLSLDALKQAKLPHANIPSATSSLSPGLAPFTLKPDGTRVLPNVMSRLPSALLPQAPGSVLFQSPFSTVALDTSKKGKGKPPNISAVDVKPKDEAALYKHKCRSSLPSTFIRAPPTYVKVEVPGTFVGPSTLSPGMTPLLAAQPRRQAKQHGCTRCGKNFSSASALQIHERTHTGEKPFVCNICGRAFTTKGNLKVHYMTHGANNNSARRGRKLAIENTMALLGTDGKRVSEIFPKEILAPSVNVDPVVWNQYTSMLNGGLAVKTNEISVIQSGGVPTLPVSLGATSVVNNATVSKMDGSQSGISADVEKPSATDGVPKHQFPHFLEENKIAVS
Sequence | E-score
CGGACGAC | -0.316
TGTTTCAA | 0.265
GATCGGCC | -0.183
CAAGTCTA | 0.106
ATCGCGGA | -0.138
AGGTATAG | 0.0598
GAACGACC | -0.208
CAAATACA | 0.257
CTGGTCAC | -0.155
CATCGTGA | -0.152
CGAACGCG | -0.18
AGAGTACT | 0.0599
ACGTCCAA | 0.027
ATGCTCCG | -0.111
AGGCGTAT | 0.191
CAGAGTGA | -0.224
CAGTTAGA | -0.0573
AGGACGGA | -0.2
ACCAGCGG | -0.24
CTGTTATA | 0.304

Set 3 — technique: RNA Bind-n-Seq; form: RNA; matrix: in vitro; tested at: 365 nM; baseline: no-protein control; reading: higher = stronger binding
Target: RNA binding protein fox-1 homolog 2, RRM domain, GST-SBP tag (RBFOX2, Homo sapiens, UniProt O43251-10, residues 100-194)
Notes: natural RNA segment, single round, ends assumed
Construct (chain): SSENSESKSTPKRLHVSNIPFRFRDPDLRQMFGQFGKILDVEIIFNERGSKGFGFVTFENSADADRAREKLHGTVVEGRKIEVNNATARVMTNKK
Sequence | RBNS enrichment (R)
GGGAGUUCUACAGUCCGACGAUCGGCACUGCGCCCCACUGCCAGCUGCCCCUCCUGGGAGGGCCCGGGAGGAGGGUGCCACCCUCUCCCUGCCAGGGGCCUGGGGACCCUCUCCCUGGCUGCCUCAGGCUUCUUGGAAUUCUCGGGUGCCAA | 0.252
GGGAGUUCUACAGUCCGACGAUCGGGUGUGCUGACAUGUUUGCUCUUGGUUGAUGGAGAAGGUACAGAGGCCAGGGAGUGAAAAUGGUUGACAGAAGAGGGAAGAGUUAGGUGUCUCAUAGUCACUCAUAGUGUGGAAUUCUCGGGUGCCAA | 1.37
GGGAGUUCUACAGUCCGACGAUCUCAUGAGUUUCUCAGAAACAUGUUUUUAACAAUUGUACUAUUUAGUCAUUGUCCAUUUACUAUAAUUUAUCUGACCAUUUCCCUACUGUAAAAUACUUAAGACGGUUUCUUGGAAUUCUCGGGUGCCAA | 0.376
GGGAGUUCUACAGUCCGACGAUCAAGGAGUCGGAGGCCUUCGUCUGCUGCUUUGGUUCGGUCUCCACUCCUGCACUUUGGCCCCACCCACCCAUCCUAGCCUCUCAUGGCCUCCCACCCCCAUGGGUGCUAGGUGGAAUUCUCGGGUGCCAA | 1.32
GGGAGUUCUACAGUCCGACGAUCGUUCCGGGUAGGCCUUGAUAUCACCUCUGGGACUGUGCCUUGCUCACCGAAACCCGCGCCCAGGAGUAUGGCUGAGGCCUUGCCCACCCACCUGCCUGGGAAGUGCAGAGUGGAAUUCUCGGGUGCCAA | 0.693
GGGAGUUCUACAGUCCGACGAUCGCUCAGUGGUUAAGAGUACCUGUUGCUGUUGCAGAGGACCUGGAUUGGAUUCCCAGCACCCACUCAGUGGCCCACAACUAUCCAAUACUCCCGAUGCAUGGGAUCCAGUGUGGAAUUCUCGGGUGCCAA | 11
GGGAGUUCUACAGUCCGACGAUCAGUGCGUUCUGUGAUCGCCAAGUUCAAAGCUGUGCACAUGUGGACACUCAAUAAAUGUUCAUUGGUGACGAGAAGCCUCCUGCGUGGUCUGCCCUGCACCUGCUCUCUCCUGGAAUUCUCGGGUGCCAA | 1.26
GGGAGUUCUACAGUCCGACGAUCAAUUCAUUGCCCUUGUGAUUUAGAAGAUUAUAACAGCUGUAUUUCAUAUUUGCCUCCUUAUAUAUAUCAAAGACCAAGGUAUUUCCUUCUGCUUCAAAAGAACAAAAUUGUGGAAUUCUCGGGUGCCAA | 0.428
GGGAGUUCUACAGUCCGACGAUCUCCACCAUGGGGGACGGCCCAGCGUGGGUGGGGGUGCCAGAGGGUCCCGAGUGGGGGCCGUGCCUUUGCCCAGACCCUGCACUUUCAACCAGGCCAGUCCGGCUCUGGGGUGGAAUUCUCGGGUGCCAA | 0.252
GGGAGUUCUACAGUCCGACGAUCCUUCCAUUCCUGGUUUUAGGGCAGAAUCCAUGGAGACUGCUUCCAGAAGGCAUCUGGCUCUGAGUUAUAAAUUACUUCCCUGGUCCUGACAGUCACCUGGGGUCCCCCCUUGGAAUUCUCGGGUGCCAA | 0.299
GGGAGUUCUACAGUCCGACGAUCAAGUCAAACGAGGAAUUUAAAAAAGCAAAAGUUGACCGAAGGUGCAUUUUUGUUUAGACUCCCUGAGGUUCCGUUUUACACAUGAUCCAACGUUAACUACCUUUUUUUCUUGGAAUUCUCGGGUGCCAA | 0.483
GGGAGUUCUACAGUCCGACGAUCUUCCUCCGCUCACCCCAUUGCUUGUUAUCACUGGGGAUGCCUGGACUUGGUCAAGUGAGCAACUGAUUCUUGUUUUUAGCAACUCAAAACAUAAAAAGAUCAGGAGAGCAUGGAAUUCUCGGGUGCCAA | 5.82

Set 4 — technique: protein-binding microarray; form: double-stranded DNA, one strand shown; matrix: in vitro; tested at: 250 nM; notes: 60-bp whole probe; together with: salmon DNA 0.4 mg/ml; baseline: random background probes; reading: higher = stronger binding; constant ends, left off below: GCCTAGCAC … GTCTTGATTCGCTTGACGCTGCTG
Target: Interferon regulatory factor 7, full length, phosphomimetic (IRF7, Homo sapiens, UniProt Q92985, residues 1-503, S101K/S471D/S472D/S475D/S476D/S477D/S483D/S484D/S487D)
Target sequence (chain): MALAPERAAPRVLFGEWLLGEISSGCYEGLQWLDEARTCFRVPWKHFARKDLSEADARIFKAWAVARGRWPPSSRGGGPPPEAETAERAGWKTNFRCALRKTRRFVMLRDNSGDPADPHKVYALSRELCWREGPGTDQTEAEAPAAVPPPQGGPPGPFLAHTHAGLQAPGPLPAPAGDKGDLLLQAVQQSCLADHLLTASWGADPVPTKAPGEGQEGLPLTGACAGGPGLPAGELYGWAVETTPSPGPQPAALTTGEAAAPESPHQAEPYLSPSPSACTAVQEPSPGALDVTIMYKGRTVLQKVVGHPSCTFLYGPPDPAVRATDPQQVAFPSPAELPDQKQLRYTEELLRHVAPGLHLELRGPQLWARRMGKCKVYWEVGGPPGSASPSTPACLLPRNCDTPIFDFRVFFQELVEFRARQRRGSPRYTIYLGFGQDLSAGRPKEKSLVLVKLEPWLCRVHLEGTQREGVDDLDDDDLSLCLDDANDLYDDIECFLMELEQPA
Sequence | log fluorescence [z-score]
GACGAACTGTGTCTCGAGACGTGCTAG | -0.0552
GACGGACTGCGTCTCCTGACGTGCTAG | -0.563
TTAGGTTTTGGTTTCGGTTAGTGCTAG | 10.7
TTAGGTTTCGGGACCGGGTTAGTGCTA | 3.92
ATAATTTTTCTAGTGGTTGCGTGCTAG | 0.702
TCAAGTCCCAAGAATGGTACTGTGCTA | 0.47
TTAGTTATCGGTCTCGGTTAGTGCTAG | 1.81
TCCATGCTGGCTTTTATGCGGTGCTAG | -1.35
GACGGTCTCGGTCTCGGCACGTGCTAG | 0.704
TTAGGTTTCGGTTTCGTTTAGTGCTAG | 15
TAGAATGTCCTTTCTCCATGGGTGCTA | 0.121
TTAGGACTGGGTCACGGTTAGTGCTAG | 0.522
TTAGATTCCGGGTTTCGATTAGTGCTA | 7.4
GACGGTTCCCTACTGCTGACGTGCTAG | 0.365
TCATGTCTTCCCCTCTCACTGTGCTAG | 0.926
GACGGTTTCGACACTGGGGGCGTGCTA | 4.94
GACGAACTGGGGAGTGGAGACGTGCTA | -0.494
TTTTTTTTCTGATCCATTTTGTGCTAG | 1.44
GACGATTTCGGGAATCGAGACGTGCTA | 1.22
TCAGTTTTGTGTGTGTGACTGTGCTAG | 0.38
GACGAACTGAGGATCGAGACGTGCTAG | -0.231
TTTTTTTTTTTTTTACTTCGGTGCTAG | 0.713
TCAGCAAAAATGATTGGACTGTGCTAG | -0.17
GTTTTTTAAAGTTTCAGTGAGTGCTAG | 1.71

Set 5 — technique: protein binding microarray; form: double-stranded DNA, one strand shown; matrix: in vitro; tested at: not given; baseline: not given; reading: higher = stronger binding
Target: Histone acetyltransferase KAT6A, winged helix 2, GST fusion (KAT6A, Homo sapiens, UniProt Q92794, residues 85-181)
Notes: 8-mer, flanks averaged, mean of 2 arrays, mostly near background
Construct (chain): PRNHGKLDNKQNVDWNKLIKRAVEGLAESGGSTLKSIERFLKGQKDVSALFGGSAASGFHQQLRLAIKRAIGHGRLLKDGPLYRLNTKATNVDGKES
Sequence | E-score
GACTGATA | -0.184
CGGTCATA | -0.0007
CTTAGCTC | 0.00296
CGCACCGA | 0.0275
CCATCATA | -0.0996
CTTGCCGC | 0.144
TAAACCAA | 0.14
AGACGTAA | -0.0572
GCAAACTA | 0.095
GGCGCAGA | 0.0711
CGACGTTA | 0.0384
AAGTGCCG | 0.015
CAAAACGA | 0.154
GCCCCCGA | 0.00043
GGGTTGTA | -0.112
AAACACCG | 0.137

Excerpt of the above (set 1):
Sequence | 7-mer Z-score
ACGGACG | 0.0352
UUGACAG | -0.217
GUUCGAC | -0.325
AAGUCCU | -0.206
CUAUGGC | -0.19
CUAGGGA | 0.211
CGCGAGC | -0.356
UACAUCU | -0.229
UUGCUCG | -0.333
